Results gathered from unrelated publications.
Values joined by “and” are separate records of one study, mostly repeats; a detail may differ. ± marks the error that the study gave.
WD repeat-containing protein 91 WD40 domain, residues 392–747: WD repeat-containing protein 91, WD40 domain, residues 392–747 (Homo sapiens, UniProt A4D1P6)
Sequence of UniProt A4D1P6 (whole entry, looked up): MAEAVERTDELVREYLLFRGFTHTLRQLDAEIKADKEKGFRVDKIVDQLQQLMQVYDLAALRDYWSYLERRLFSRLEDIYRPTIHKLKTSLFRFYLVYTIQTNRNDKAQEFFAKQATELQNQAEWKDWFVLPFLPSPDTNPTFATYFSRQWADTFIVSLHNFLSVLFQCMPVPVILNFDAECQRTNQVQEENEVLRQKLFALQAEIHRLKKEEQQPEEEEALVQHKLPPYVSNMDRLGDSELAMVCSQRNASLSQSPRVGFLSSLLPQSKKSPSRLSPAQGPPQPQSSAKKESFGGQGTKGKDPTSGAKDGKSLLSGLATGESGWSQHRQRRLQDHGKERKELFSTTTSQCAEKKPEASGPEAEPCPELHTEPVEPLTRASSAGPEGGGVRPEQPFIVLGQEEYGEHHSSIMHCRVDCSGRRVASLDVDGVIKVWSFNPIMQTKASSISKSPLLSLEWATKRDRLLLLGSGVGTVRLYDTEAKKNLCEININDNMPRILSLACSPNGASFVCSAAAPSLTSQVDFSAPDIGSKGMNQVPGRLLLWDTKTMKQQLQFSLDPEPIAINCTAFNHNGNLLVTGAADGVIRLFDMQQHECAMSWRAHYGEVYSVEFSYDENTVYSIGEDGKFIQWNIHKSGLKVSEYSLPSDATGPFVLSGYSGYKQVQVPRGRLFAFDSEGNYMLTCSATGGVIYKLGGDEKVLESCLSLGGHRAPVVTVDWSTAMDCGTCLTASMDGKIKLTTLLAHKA
Genome polyprotein NS3 helicase domain: Genome polyprotein, NS3 helicase domain (Hepatitis C virus genotype 1b, UniProt Q9WMX2)
T1: RNA aptamer; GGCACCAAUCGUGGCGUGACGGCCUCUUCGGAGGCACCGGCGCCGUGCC
Sequence of UniProt Q64663 (whole entry, unmodified, looked up): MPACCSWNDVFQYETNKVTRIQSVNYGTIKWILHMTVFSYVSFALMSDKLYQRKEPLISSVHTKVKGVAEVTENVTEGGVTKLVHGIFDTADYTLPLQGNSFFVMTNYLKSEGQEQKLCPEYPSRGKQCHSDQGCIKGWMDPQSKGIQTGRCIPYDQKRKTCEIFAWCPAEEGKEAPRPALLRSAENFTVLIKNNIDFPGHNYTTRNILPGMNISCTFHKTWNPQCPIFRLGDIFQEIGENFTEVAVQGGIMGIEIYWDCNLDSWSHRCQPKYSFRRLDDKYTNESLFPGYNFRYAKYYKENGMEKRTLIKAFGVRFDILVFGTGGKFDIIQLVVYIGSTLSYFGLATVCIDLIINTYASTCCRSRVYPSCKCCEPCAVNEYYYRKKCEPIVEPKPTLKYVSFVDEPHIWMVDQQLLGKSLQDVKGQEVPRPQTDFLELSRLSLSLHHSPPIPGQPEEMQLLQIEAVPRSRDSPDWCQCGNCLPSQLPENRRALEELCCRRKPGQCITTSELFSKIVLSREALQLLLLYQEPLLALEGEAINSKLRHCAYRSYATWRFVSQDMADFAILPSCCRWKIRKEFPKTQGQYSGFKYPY
Sequence of UniProt Q16774 (whole entry, looked up): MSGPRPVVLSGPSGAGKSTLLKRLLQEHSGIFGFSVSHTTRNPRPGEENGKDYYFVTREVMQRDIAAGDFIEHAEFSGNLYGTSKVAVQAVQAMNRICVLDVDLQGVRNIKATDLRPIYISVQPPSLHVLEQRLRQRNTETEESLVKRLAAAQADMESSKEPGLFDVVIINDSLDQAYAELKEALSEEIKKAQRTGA
Sequence of UniProt P51575 (whole entry, unmodified, looked up): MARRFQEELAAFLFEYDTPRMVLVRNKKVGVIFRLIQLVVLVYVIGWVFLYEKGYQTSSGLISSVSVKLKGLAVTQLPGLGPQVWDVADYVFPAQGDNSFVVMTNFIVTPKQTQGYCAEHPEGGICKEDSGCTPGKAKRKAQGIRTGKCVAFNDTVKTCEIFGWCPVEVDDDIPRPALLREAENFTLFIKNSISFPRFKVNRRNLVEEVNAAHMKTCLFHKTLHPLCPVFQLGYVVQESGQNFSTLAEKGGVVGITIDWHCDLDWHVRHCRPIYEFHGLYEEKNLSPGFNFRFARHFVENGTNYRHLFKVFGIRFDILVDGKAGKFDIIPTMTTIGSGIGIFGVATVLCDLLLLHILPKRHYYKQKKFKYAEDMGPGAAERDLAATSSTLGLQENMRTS

Compound	target	assay	test system	conditions	scale	quantity	result
N#Cc1cccc2c1CC[C@H]2NC(=O)c1ccc(CNc2cccc3c2CCCC3)cc1	WD repeat-containing protein 91 WD40 domain, residues 392–747	SPR	–	45 µM	–	binding	9% and -8%
CC[C@H](C)[C@H](NC(=O)[C@H](CCSC)NC(=O)[C@H](CCSC)NC(=O)[C@H](C)NC(=O)[C@H](C)NC(=O)[C@H](Cc1ccc(O)cc1)NC(=O)[C@H](C)NC(=O)[C@H](CCCCN)NC(=O)CNC(=O)[C@@H](NC(=O)[C@@H](NC(=O)[C@H](CCSC)NC(=O)[C@H](Cc1c[nH]cn1)NC(=O)CN)[C@@H](C)O)C(C)C)C(=O)N[C@@H](CCSC)C(=O)N[C@@H](CCC(=O)O)C(=O)N[C@@H](Cc1ccc(O)cc1)C(=O)N[C@@H](Cc1ccc(O)cc1)C(=O)N[C@@H](CCCNC(=N)N)C(=O)N[C@@H](CCC(N)=O)C(=O)N[C@@H](CO)C(=O)N[C@@H](CCCCN)C(=O)N[C@@H](C)C(=O)N[C@@H](CCCCN)C(=O)N[C@@H](CCCCN)C(=O)N[C@@H](CC(C)C)C(=O)N[C@@H](CCC(N)=O)C(=O)N[C@@H](C)C(=O)N[C@@H](CCSC)C(=O)N[C@@H](CCCNC(=N)N)C(=O)O	Calmodulin-1, Ca2+-bound C-lobe (CALM1, Homo sapiens, UniProt P0DP23)	binding, isothermal titration calorimetry	–	pH 7.4, 15 °C, C-lobe, CaV2.1 IQ domain, together with: Ca2+	–	ΔH	-4.64 ± 0.03 kcal/mol
CCCCCCSC[C@H]1CN(Cc2c[nH]c3c(N)ncnc23)C[C@@H]1O	Aminodeoxyfutalosine nucleosidase (Helicobacter pylori, UniProt Q9ZMY2)	inhibitor release from complex	–	–	–	release half-life	18 min
O=C(COP(=O)(O)O)[C@@H](O)[C@H](O)[C@H](O)COP(=O)(O)O	GTP-binding nuclear protein Ran (RAN, Homo sapiens, UniProt P62826)	thermal proteome profiling	HepG2 cell lysate	concentration not given, 57 over 37 °C	reference: compound over control	thermal stability ratio	0.583 and 0.5 and 0.52
Nc1nc2c(ncn2[C@@H]2O[C@H](COP(=O)(O)O)[C@@H](O)[C@H]2O)c(=O)[nH]1	GUK1 (Homo sapiens, UniProt Q16774)	enzyme activity, NADH-coupled	–	1000 µM, together with: NaCl 150 mM	–	reaction velocity	0.0733 µM/s and 0.0864 µM/s and 0.079 µM/s
CC12CC3CC(C)(C1)CC(N)(C3)C2	Glutamate receptor 2 (Homo sapiens, UniProt P42262)	ion current, agonist, SyncroPatch patch clamp	HEK293	30 µM	–	activation	6%
NCCCCN=C(N)N	N-alpha-acetyltransferase 80 (NAA80, Homo sapiens, UniProt Q93015)	substrate, DTNB	–	2 mM, 30 min, 37 °C, together with: acetyl-CoA 500 µM	–	product formation	-2.45 µM
CCc1cnn2c(NCc3ccc[n+]([O-])c3)cc(N3CCCC[C@H]3CCO)nc12	Bromodomain-containing protein 4 (BRD4, Homo sapiens, UniProt O60885)	19F NMR, refers to: tyrosine 119	–	24 µM	reference: free protein	chemical shift change	-0.1 ppm
CC[C@H](C)[C@H](NC(=O)[C@H](CCCCN)NC(=O)CNC(=O)[C@@H](NC(=O)[C@@H](NC(=O)[C@H](CCSC)NC(=O)[C@H](Cc1c[nH]cn1)NC(=O)CN)[C@@H](C)O)C(C)C)C(=O)N[C@@H](Cc1ccc(O)cc1)C(=O)N[C@@H](C)C(=O)N[C@@H](C)C(=O)N[C@@H](CCSC)C(=O)N[C@@H](CCSC)C(=O)N[C@H](C(=O)N[C@@H](CCSC)C(=O)N[C@@H](CCC(=O)O)C(=O)N[C@@H](Cc1ccc(O)cc1)C(=O)N[C@@H](Cc1ccc(O)cc1)C(=O)N[C@@H](CCCNC(=N)N)C(=O)N[C@@H](CCC(N)=O)C(=O)N[C@@H](CO)C(=O)N[C@@H](CCCCN)C(=O)N[C@@H](C)C(=O)N[C@@H](CCCCN)C(=O)N[C@@H](CCCCN)C(=O)N[C@@H](CC(C)C)C(=O)N[C@@H](CCC(N)=O)C(=O)N[C@@H](C)C(=O)N[C@@H](CCSC)C(=O)N[C@@H](CCCNC(=N)N)C(=O)O)[C@@H](C)CC	Calmodulin-1, Ca2+-bound N-lobe (CALM1, Homo sapiens, UniProt P0DP23)	binding, isothermal titration calorimetry	–	pH 7.4, 15 °C, N-lobe, CaV2.1 IQ domain, together with: Ca2+	–	stoichiometry	0.87 ± 0.06
NC(CO)C(=O)NNCc1ccc(O)c(O)c1O (stereo not drawn)	Genome polyprotein NS3 helicase domain	DNA binding, inhibitor	hepatitis C virus	100 µM, together with: Cy5-dT15 DNA	–	inhibition	1%
N#Cc1cccc2c1CC[C@H]2NC(=O)c1ccc(SCc2cn3ccccc3n2)cc1	WD repeat-containing protein 91, residues 392–747 (Homo sapiens, UniProt A4D1P6)	SPR dose-response titration	–	concentration not given, 1:1 binding model	–	binding	117% and 113%
CN(CCO)c1ccc(/C=C(\C#N)c2ccc(C#N)cc2)cc1	T1, RNA aptamer	fluorescence titration, Hill fit	–	apparent	–	Kd	0.122 µM
C=CC(=O)N1CCC(COCC(=O)N2CCN(c3nc(-c4cnc(N)nc4C(F)F)nc(N4CCOC[C@@H]4C)n3)CC2)CC1	Fibroblast growth factor receptor 2 (FGFR2, Homo sapiens, UniProt P21802)	KINOMEscan	–	1 µM	–	remaining binding	100%
Cc1nc2sccn2c(=O)c1CCN1CCC(=C(c2ccc(F)cc2)c2ccc(F)cc2)CC1	Diacylglycerol kinase alpha (Rattus norvegicus, UniProt P51556)	kinase activity, inhibitor	HEK293T cell lysate	together with: diacylglycerol liposomes	–	IC90	123 µM
Nc1ncnc2c1ncn2[C@@H]1O[C@H](COP(=O)(O)OP(=O)(O)OP(=O)(O)O)[C@@H](O)[C@H]1O	P2X purinoceptor 7 (P2rx7, Rattus norvegicus, UniProt Q64663, Q143A/R125A)	ion current, agonist, two-electrode voltage clamp	Xenopus laevis oocytes	6 µM	reference: highest concentration response	normalized current	0.00201 and 0 and 0.00984
Nc1ncnc2c1ncn2[C@@H]1O[C@H](COP(=O)(O)CP(=O)(O)OP(=O)(O)O)[C@@H](O)[C@H]1O	P2X purinoceptor 1 (P2RX1, Homo sapiens, UniProt P51575, R139P)	saturation binding	HEK293	79 nM	–	specific binding	1220 CCPM and 1490 CCPM
N=C(N)N/N=C/c1c(Cl)cccc1Cl	Genome polyprotein NS3 helicase domain	DNA binding, inhibitor	hepatitis C virus	100 µM, together with: Cy5-dT15 DNA	–	inhibition	0%
CCCCCCCCC(=O)c1cc(O)c(O)c(O)c1	Nuclear receptor ROR-gamma (RORC, Homo sapiens, UniProt P51449)	reporter gene, Gal4 hybrid reporter	–	10 µM	reference: vehicle	activation	0.87 fold

Compound	target	assay	test system	conditions	scale	quantity	result
COC(=O)[C@@H]1CCCN1Cc1cn(-c2ccc(C(=O)N3CCC(C#N)CC3)cc2)nn1	WD repeat-containing protein 91 WD40 domain, residues 392–747	SPR	–	45 µM	–	binding	2% and -7%
CC(C)OCCn1c(=S)[nH]c(=O)c2[nH]ccc21	Myeloperoxidase (MPO, Homo sapiens, UniProt P05164)	H2O2 consumption, inhibitor, H2O2 electrode	–	0.45 µM, 0.1 s	–	H2O2 concentration	-1.15 µM
CCCCCCCC/C=C\CCCCCCCC(=O)NCCc1ccc(O)c(O)c1	Transient receptor potential cation channel subfamily V member 1 (Trpv1, Mus musculus, UniProt Q704Y3, Y555F)	ion current, agonist, whole-cell patch clamp	–	Y555F	–	Hill coefficient	1.56 ± 0.59
N[C@H](COP(=O)(O)O)Cc1c[nH]cn1	Act1	substrate, coupled phosphate release	–	–	–	Km	18 ± 1 µM
CC[C@H](C)[C@@H]1NC(=O)[C@H](C)NC(=O)[C@H]([C@@H](C)CC)NC(=O)[C@H](CCC(N)=O)NC(=O)[C@H](C)NC(=O)[C@H](CCCNC(=N)N)NC(=O)[C@H](C(C)C)NC(=O)[C@H](CC(C)C)NC(=O)[C@H](CCC(=O)O)NC(=O)[C@H](CCCNC(=N)N)NC(=O)CNC(=O)[C@@H](NC(=O)[C@H](CC(C)C)NC(=O)[C@H](CCCCN)NC(=O)[C@@H](NC(=O)[C@@H](NC(=O)[C@H](CCC(=O)O)NC(=O)[C@H](CCC(=O)O)NC(=O)[C@H](CCSC)NC(=O)[C@H](Cc2c[nH]c3ccccc23)NC(=O)[C@H](CO)NC(=O)[C@@H](N)CC(=O)O)C(C)C)[C@@H](C)CC)CSSC[C@@H]2NC(=O)[C@@H](NC(=O)[C@H](CCCCN)NC(=O)[C@H](CC(N)=O)NC(=O)[C@H](C)NC(=O)[C@H](CC(C)C)NC(=O)[C@H](C)NC(=O)[C@H](CO)NC(=O)[C@H](Cc3ccc(O)cc3)NC(=O)[C@H](CC(C)C)NC(=O)[C@H](CCC(N)=O)NC(=O)c3ccc(-c4c5ccc(=[N+](C)C)cc-5oc5cc(N(C)C)ccc45)c(C(=O)[O-])c3)CSSC[C@H](NC(=O)CNC(=O)[C@H](C(C)C)NC(=O)[C@H](Cc3c[nH]cn3)NC2=O)C(=O)N[C@@H]([C@@H](C)O)C(=O)N[C@@H](CCCCN)C(=O)N[C@@H](CCCNC(=N)N)C(=O)N[C@@H](CO)C(=O)N[C@@H](CC(C)C)C(=O)N[C@@H](C)C(=O)N[C@@H](CCCNC(=N)N)C(=O)N[C@@H](Cc2ccccc2)C(=O)N[C@H](C(=O)O)CSSC[C@@H](C(=O)NCC(=O)N[C@@H](CCSC)C(=O)N[C@@H](CO)C(=O)N[C@H](C(=O)N[C@@H](Cc2c[nH]c3ccccc23)C(=O)N[C@@H](CO)C(=O)O)[C@@H](C)O)NC1=O	Relaxin receptor 1 (RXFP1, Homo sapiens, UniProt Q9HBX9, F76A/Y80A)	binding, NanoBRET	–	concentration not given, together with: relaxin 100 nM	–	fast dissociation fraction	65.5%
Nc1ncnc2c1c(-c1ccc(Oc3ccccc3)cc1)cn2C1CCCC1	Genome polyprotein NS3 helicase domain	DNA binding, inhibitor	hepatitis C virus	100 µM, together with: Cy5-dT15 DNA	–	inhibition	2%
Cc1cccc(N2CC(C(=O)O)CC2=O)c1 (stereo not drawn)	SPRY domain-containing SOCS box protein 2, SPRY domain (Homo sapiens, UniProt Q99619)	binding, affinity selection mass spectrometry	–	–	reference: other proteins in batch	log fold enrichment	0.152
CCCCCCCCCCCc1ccc([C@H]2CC[C@H]([N+](C)(C)CCC)CC2)cc1.[I-]	Sphingosine kinase 1 (SPHK1, Homo sapiens, UniProt Q9NYA1)	inhibitor, radiometric flash-plate	cell lysate	together with: sphingosine 10 µM	–	Ki/Km ratio	1.5
O=C1Cc2cc(CCN3CCN(c4nsc5ccccc45)CC3)c(Cl)cc2N1	Genome polyprotein NS3 helicase domain	DNA binding, inhibitor	hepatitis C virus	100 µM, together with: Cy5-dT15 DNA	–	inhibition	2%
O=C(c1ccc(C(=O)N2CCC(N3CCCC3)CC2)c(Nc2ccccc2)c1)N1CCC(N2CCCC2)CC1	Lethal(3)malignant brain tumor-like protein 3 (Homo sapiens, UniProt Q96JM7)	FRAP	human cells	0.5 µM	–	diffusion coefficient	0.0503 µm2/s
CCc1c(C(=O)NCCc2ccc(N3CCCCC3)cc2)[nH]c2ccc(Cl)cc12	Genome polyprotein NS3 helicase domain	DNA binding, inhibitor	hepatitis C virus	100 µM, together with: Cy5-dT15 DNA	–	inhibition	0%
Oc1ccc2c(c1)OC[C@]1(O)Cc3cc(O)c(O)cc3[C@H]21	Estrogen receptor (ESR1, Homo sapiens, UniProt P03372)	array formation	PRL-HeLa	–	reference: EC50 ERβ over EC50 ERα	selectivity ratio	44.3
COC(=O)[C@@H]1[C@H]2C[C@H]3c4[nH]c5ccccc5c4CCN3C[C@@H]2CC[C@@H]1O	Genome polyprotein NS3 helicase domain	DNA binding, inhibitor	hepatitis C virus	100 µM, together with: Cy5-dT15 DNA	–	inhibition	0%
N[C@H](Cc1c[nH]c2ccccc12)C(=O)O	Uncharacterized protein (Chromohalobacter israelensis, UniProt Q1QT90)	binder, thermal shift	–	–	–	delta Tm	2.7 °C
O=C(/C=C/c1ccc(O)cc1)c1ccc(O)cc1O	Genome polyprotein NS3 helicase domain	DNA binding, inhibitor	hepatitis C virus	100 µM, together with: Cy5-dT15 DNA	–	inhibition	0%
CC(=O)N[C@@H](CC(N)=O)C(=O)N[C@@H](CC(C)C)C(=O)NCC(=O)N[C@@H](CCCCN)C(=O)N[C@@H](Cc1c[nH]cn1)C(=O)N[C@@H](CCC(=O)O)C(=O)N[C@@H](CCCCN)C(=O)N[C@@H](Cc1ccccc1)C(=O)N[C@@H](CO)C(=O)N[C@@H](CCC(=O)O)C(=O)N[C@H](C(=O)N[C@@H](CC(C)C)C(=O)N[C@@H](CCCCN)C(=O)N[C@@H](CCCNC(=N)N)C(=O)N[C@@H](CC(C)C)C(=O)N[C@@H](CCCNC(=N)N)C(=O)N[C@@H](CC(C)C)C(=O)N[C@@H](CCC(N)=O)C(N)=O)C(C)C	Calmodulin-1, C-lobe (CALM1, Homo sapiens, UniProt P0DP23)	ITC	–	concentration not given, C-lobe, together with: 1 mM CaCl2	–	binding stoichiometry	1.01
NC[C@@H]1O[C@H](O[C@H]2[C@@H](O)[C@H](O[C@@H]3[C@@H](O)[C@H](N)C[C@H](N)[C@H]3O[C@H]3O[C@H](CO)[C@@H](O)[C@H](O)[C@H]3N)O[C@@H]2CO)[C@H](N)[C@@H](O)[C@@H]1O	Genome polyprotein NS3 helicase domain	DNA binding, inhibitor	hepatitis C virus	100 µM, together with: Cy5-dT15 DNA	–	inhibition	0%
CC(Oc1ccccc1)C(=O)NCc1ccccn1 (stereo not drawn)	WD repeat-containing protein 91 (Homo sapiens, UniProt A4D1P6)	binding, affinity selection mass spectrometry	–	–	reference: other proteins in batch	log fold enrichment	-0.0198
